Experimental data from different studies.
Parts stem from different laboratories: compare values within a part only. Positions count from the first letter of the parent shown.

Study 1
Substance: PhoQ, residues 284 288 289 292 302 303 NSMLDC
Technique: Sort-seq
Measured: YFP reporter
Medium: E. coli
Setting: PhoQ-PhoP variant library
With: 10 µM Mg2+
Reference: high Mg2+ state
Reading: higher = stronger signaling
target | fold induction
PhoP, residues 12 14 15 18 19 TQCLL (Escherichia coli, UniProt P23836) | 7.64
PhoP, residues 12 14 15 18 19 VHTVL (Escherichia coli, UniProt P23836) | 5.93
PhoP, residues 12 14 15 18 19 ICWRQ (Escherichia coli, UniProt P23836) | 4.32

Study 2
Target: CCNB2, cyclin fold, Cln2 fusion (human)
Technique: yeast growth competition, sequencing
Medium: yeast
Setting: weak parent motif
Reference: not given
Reading: higher = stronger binding
Starting sequence: E2F1 docking peptide (human); PPVKRRLDLETDH; partner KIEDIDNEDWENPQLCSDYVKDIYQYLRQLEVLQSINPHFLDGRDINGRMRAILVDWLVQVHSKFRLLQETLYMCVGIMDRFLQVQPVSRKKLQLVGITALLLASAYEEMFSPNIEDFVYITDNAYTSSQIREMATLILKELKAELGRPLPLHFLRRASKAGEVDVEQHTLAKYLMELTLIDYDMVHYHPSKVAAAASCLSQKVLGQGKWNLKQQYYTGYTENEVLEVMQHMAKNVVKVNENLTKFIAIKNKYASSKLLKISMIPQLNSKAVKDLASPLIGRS
Variant | normalised enrichment score
P1R | -0.0405
D8W | 0.613
P1T | 0.219
H13Y | 0.808
R6S | -0.415
R5Q | -0.139
V3M | 0.284
E10F | 0.677
E10Y | 0.187
K4M | 0.478
K4D | -0.216
E10G | 0.783
D12S | 0.587
V3K | 0.547
H13T | 0.445

Study 3
Target: Centromere-binding protein 1, full length, N-terminal tag (CBF1, Saccharomyces cerevisiae, UniProt P17106, residues 1-351)
Chain of UniProt P17106 (whole entry, looked up): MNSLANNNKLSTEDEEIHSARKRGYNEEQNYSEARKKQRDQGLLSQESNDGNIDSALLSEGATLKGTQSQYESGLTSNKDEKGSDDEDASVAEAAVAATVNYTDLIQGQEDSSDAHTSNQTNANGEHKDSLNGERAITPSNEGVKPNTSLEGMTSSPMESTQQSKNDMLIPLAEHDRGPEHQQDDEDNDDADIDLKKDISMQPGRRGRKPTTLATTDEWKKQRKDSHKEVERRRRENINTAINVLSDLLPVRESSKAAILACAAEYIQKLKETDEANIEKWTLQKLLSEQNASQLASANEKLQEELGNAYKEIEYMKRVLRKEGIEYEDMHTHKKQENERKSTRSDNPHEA
Technique: protein-binding microarray
Form: double-stranded DNA, one strand shown
Medium: in vitro
Concentration: 0.8 µM
Setting: whole 60-bp probe, no competitor
Reading: higher = stronger binding
Sequence | fluorescence intensity
GAATGTCATAGTTGGCACGGGACAGAATACGTTTAGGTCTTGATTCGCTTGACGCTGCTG | 1160 a.u.
GAAGCTGATGCTGATGCTGATGTTGTGCTATATTAGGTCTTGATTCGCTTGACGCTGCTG | 504 a.u.
GAAAACGTGTGCTTTCGCCTGATTCAGTAATCATAGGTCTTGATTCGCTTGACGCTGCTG | 550 a.u.
GAATAACCTCTTGTGATCATCTGCTATGTGGAATAGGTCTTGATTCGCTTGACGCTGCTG | 723 a.u.
GAACACTATCCTGTACATGTGAAATGTATAAAATAGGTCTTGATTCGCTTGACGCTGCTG | 841 a.u.
GAAATTCATGTGTGTCACGAAAAGTGATGTAACTAGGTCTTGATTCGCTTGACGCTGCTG | 612 a.u.
CTATTTCAGGGTTGTCAGGAGATCCTTCCCTCATTCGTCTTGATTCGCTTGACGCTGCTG | 582 a.u.
TGTACGAAGCTATGTTATGTGACTATAGTAGTTAGGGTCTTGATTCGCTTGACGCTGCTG | 546 a.u.
CTATATAGCACCGACCATGTGGGCAAATTCGTATTCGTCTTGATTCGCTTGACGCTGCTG | 651 a.u.
GAAATATAAGATTATCAGATGACTATTTTCTGCTAGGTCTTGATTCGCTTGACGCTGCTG | 807 a.u.
CTATATAAGGAATGACACGAAGAGAGCAGACTATTCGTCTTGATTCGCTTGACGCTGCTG | 548 a.u.
CTAATTCGAGACCTGTCCGTGATGTCGAGGACATTCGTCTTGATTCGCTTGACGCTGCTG | 543 a.u.
GAATAACATTCTTGTGGTCACGTGATGTGTATGTAGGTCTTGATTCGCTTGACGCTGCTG | 40600 a.u.
CTAGATTTGTTGCAAGAGGTGACATTCAGCATCTTCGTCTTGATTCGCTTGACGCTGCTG | 559 a.u.
CTAACATATACTATGCACGTTTTTTATATGACGTTCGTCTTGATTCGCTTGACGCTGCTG | 1010 a.u.
GAATTGATAGTACACGTGATTGTATACCCAATGTAGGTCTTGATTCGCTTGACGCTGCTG | 11500 a.u.
CTATTGGTCATATTAATCATGACCAATATAATATTCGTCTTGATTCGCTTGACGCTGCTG | 553 a.u.
GAATATCTATACCGTGACAACTCCAAAAAATCCTAGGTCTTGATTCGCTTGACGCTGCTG | 1010 a.u.
CTACACAGTTGTAGTCACGTGCGCGCCATGCTGTTCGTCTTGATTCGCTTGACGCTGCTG | 19400 a.u.
CCTAACTACTATAATCAGTTGGAATAGCTTCGTACAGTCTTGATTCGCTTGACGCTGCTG | 500 a.u.
CTATGAACACCCCGTCACCTGAGTCAGGTAATTTTCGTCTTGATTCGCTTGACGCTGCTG | 757 a.u.
CTAGCTAAATTTAAGGGCGTGATCTCAGAACTCTTCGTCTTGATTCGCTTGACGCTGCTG | 1200 a.u.
CTACCTATTAATTGTCAGACCACCGAATGCTATTTCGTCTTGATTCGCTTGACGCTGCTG | 629 a.u.
GAAGCTTAAATAGGTGACACAAAATGGAGGGCATAGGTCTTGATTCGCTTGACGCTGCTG | 539 a.u.

Study 4
Target: Ras GTPase-activating protein-binding protein 1, full length (G3BP1, Homo sapiens, UniProt Q13283)
Chain of UniProt Q13283 (whole entry, looked up): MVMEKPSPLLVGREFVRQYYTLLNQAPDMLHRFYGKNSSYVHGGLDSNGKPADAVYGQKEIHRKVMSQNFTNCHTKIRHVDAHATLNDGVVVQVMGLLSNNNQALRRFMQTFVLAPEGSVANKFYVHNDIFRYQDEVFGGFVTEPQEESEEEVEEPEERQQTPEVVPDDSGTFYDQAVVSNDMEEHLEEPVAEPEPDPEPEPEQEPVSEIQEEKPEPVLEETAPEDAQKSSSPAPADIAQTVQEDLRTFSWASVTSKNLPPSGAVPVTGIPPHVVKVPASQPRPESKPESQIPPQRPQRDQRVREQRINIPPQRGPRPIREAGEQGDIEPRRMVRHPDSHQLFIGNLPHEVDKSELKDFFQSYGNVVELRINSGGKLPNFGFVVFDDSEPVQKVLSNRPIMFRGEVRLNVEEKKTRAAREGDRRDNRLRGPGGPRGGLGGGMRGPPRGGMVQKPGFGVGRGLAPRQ
Technique: RNA Bind-n-Seq
Form: RNA
Medium: in vitro
Concentration: 200 nM
Setting: whole 134-nt RNA, ends assumed
With: 150 mM LiCl
Reference: input library
Reading: higher = stronger binding
Library: 7-deaza-guanosine replaces G
Sequence | log2 enrichment
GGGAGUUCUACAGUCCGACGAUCCAAGUCCUGUGCUACACAUCGUAUGUACCGAAUCGGAAAAAGGAAAGGUUUUUGGAAAGUAUUAUGUUACGCCGUUCGGAUCUGCACUUCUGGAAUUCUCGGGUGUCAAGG | -0.969
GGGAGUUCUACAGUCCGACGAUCCUCAAGUCCUGUGCUACACAUCGUAUGUACCGAAUCGGAAGGGAAGGGGAAGGGAAAGUAUUAUGUUACGCCGUUCGGAUCUGCACUUCCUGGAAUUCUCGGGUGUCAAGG | 0.0345
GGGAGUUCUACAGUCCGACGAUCGUCCUGUGCUACACAUCGUAUGUACCGAAUCGGGGAAAAAGGAAAAAGGGGAAAAAGGAAAGUAUUAUGUUACGCCGUUCGGAUCUGCACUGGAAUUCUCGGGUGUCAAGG | -0.116
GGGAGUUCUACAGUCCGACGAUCCUCAAGUCCUGUGCUACACAUCGUAUGUACCGAAUCGGGAAAGGGAGGGUGGGAAAGUAUUAUGUUACGCCGUUCGGAUCUGCACUUCCAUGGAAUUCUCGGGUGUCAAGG | 0.0257
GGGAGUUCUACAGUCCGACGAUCAGUCCUGUGCUACACAUCGUAUGUACCGAAUCGGUUUUUUUGGUUUGGAAAAAAAGGAAAGUAUUAUGUUACGCCGUUCGGAUCUGCACUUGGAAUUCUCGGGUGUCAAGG | -2.17
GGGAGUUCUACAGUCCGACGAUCGUCCUGUGCUACACAUCGUAUGUACCGAAUCGGGAAAAAAAGGGUUUUUUUGGGUGGGAAAGUAUUAUGUUACGCCGUUCGGAUCUGCACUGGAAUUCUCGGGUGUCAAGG | -1.54
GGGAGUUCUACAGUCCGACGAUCUGGGAGGUGGAUUUUAUUUAUUUUUUUAGCUCAUUUCCAGGGGUGGGAAUUUUUUUUUAAUAUGUGUCAUGAAUAAAGUUGUUUUUGAAAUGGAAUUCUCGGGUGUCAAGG | -0.247
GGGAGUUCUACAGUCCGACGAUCUUCCGGAAGAAGAAGCUCCGAUUUGGCCGGAGCCGGAUCCACGAGUGGGGUCUGUUUGCCAUGGAACCCAUUGCUGCUGACGAGAUGGUCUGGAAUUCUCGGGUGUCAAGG | -0.642
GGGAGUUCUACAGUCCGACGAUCACCAUGCAGGUGGGCAUCUUUGGGAAGUGGGGCAAGGGGGGGAUAGGGAGGGGGGUAACACUUUGGGAACAAAAGGUCCCAGGUCGUUUCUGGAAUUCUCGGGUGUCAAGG | 0.318
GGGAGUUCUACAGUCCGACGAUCUGGCCCUUGUGGCAUGCGGGGAGGAAGAGGUGGCCUCAUGGAUCGUGGUGGUCCCGGUGGAAUGUUCAGAGGUGGCCGUGGUGGAGACAGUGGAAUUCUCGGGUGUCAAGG | 0.331
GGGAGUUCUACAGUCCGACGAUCCCUCAAGUCCUGUGCUACACAUCGUAUGUACCGAAUCGGAGGGGAGGGGAGGGAAAGUAUUAUGUUACGCCGUUCGGAUCUGCACUUCCAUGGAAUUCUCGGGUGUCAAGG | 0.405

Some of these lines once more (study 3):
Sequence | fluorescence intensity
GAACACTATCCTGTACATGTGAAATGTATAAAATAGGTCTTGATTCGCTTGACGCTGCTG | 841 a.u.
GAAATTCATGTGTGTCACGAAAAGTGATGTAACTAGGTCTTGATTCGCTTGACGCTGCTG | 612 a.u.
CTATTTCAGGGTTGTCAGGAGATCCTTCCCTCATTCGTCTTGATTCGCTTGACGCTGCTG | 582 a.u.
TGTACGAAGCTATGTTATGTGACTATAGTAGTTAGGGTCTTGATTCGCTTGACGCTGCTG | 546 a.u.
CTATATAGCACCGACCATGTGGGCAAATTCGTATTCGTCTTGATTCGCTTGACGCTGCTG | 651 a.u.
GAAATATAAGATTATCAGATGACTATTTTCTGCTAGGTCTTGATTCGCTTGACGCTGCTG | 807 a.u.
CTATATAAGGAATGACACGAAGAGAGCAGACTATTCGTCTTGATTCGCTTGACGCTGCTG | 548 a.u.
CTAATTCGAGACCTGTCCGTGATGTCGAGGACATTCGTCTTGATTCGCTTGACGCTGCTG | 543 a.u.
